# Published values collected from several papers.
# Protocols differ between the studies behind these lines.
# Target: Testis-specific serine/threonine-protein kinase 1 (TSSK1B, Homo sapiens, UniProt Q9BXA7)
Compound,assay,conditions,how to read,quantity,result
Nc1ncc2c(n1)-c1c([nH]c3ccc(C4=CCOCC4)cc13)CCC2,"binding, competition with immobilised ligand",1 µM,,remaining binding,100%
Cc1nc2c(F)cc(-c3nc(Nc4ccc(CNC(=O)CCCCCCC(=O)NO)cc4)ncc3F)cc2n1C(C)C,"enzyme activity, inhibitor",1 µM,,inhibition,77%
COc1c(Cl)cccc1Nc1c(-c2ccncc2C#C[C@@]2(C)CCCN2C(=O)/C=C/CN(C)C)[nH]c2c1C(=O)NCC2,"binding, competition with immobilised ligand",3 µM,,remaining binding,84%
COc1cc(Nc2nccc(-c3cnn4nc(OC)ccc34)n2)cc(C(F)(F)F)c1,"binding, competition with immobilised ligand",1 µM,,remaining binding,100%
Nc1ncc(-c2cc(-c3cnn(CC(F)(F)F)c3)ncc2F)nc1C(=O)NC1CNCC(F)C1 (stereo not shown),enzyme activity,1 µM,relative to: DMSO control,remaining activity,80.8%
O=C(Cc1ccc(OCc2ccccc2)cc1)NC1(C(=O)O)CCN(C(=O)c2ccc(-c3cccc(Cl)c3)cc2)CC1,"enzyme activity, inhibitor",10 µM,,activity vs control,105%
CCN1CCN(Cc2ccc(C(=O)Nc3ccc(C)c(NCc4cnc5[nH]ccc5c4OC)c3)cc2C(F)(F)F)CC1,"binding, competition with immobilised ligand",1 µM,,remaining binding,78%
COc1c(OCCCN2CCOCC2)ccc2c1N=C(NC(=O)c1cnc(N)nc1)N1CCN=C21,"kinase activity, inhibitor",1 µM,relative to: untreated control,remaining activity,99%
CNC1C[S+]2CC[S+]3CC[S+](C1)[Ru-4]321([N]=C=S)[n]2c3ccc(OC)cc3c3c4c(c5cc(F)c[n+]1c5c32)C(=O)NC4=O (stereo not shown),KinomeScan,0.1 µM,relative to: untreated,remaining binding,100%
Cc1ccc(-c2c(/C=C(\C#N)C(=O)NC(C)C)n(CCCO)c3ncnc(N)c23)cc1,"cell-free assay, competition with immobilised ligand",1 µM,,remaining binding,100%
CNC(=O)C[C@H](Cc1ccc(C#N)cc1)NC(=O)c1cc(-c2ccc(CN[C@H](C)c3ccc(C)cc3)o2)ccc1Cl,"enzyme activity, inhibitor",1 µM,,activity vs control,102%
CN1CCN(Cc2ccc(NC(=O)c3cccc(C#Cc4cnc(N)c5ncccc45)c3)cc2C(F)(F)F)CC1,"cell-free assay, competition with immobilised ligand",50 nM,,remaining binding,92%
COc1ccc(NC(=O)Nc2ccc3c(c2)C(=O)N(C(C)CO)CC(C)C(CN(C)Cc2ccc4c(c2)OCO4)O3)cc1 (stereo not shown),"kinase activity, KinaseProfiler","0.03 µM, species human",relative to: control,remaining activity,103%
NC(=O)C[C@H]1CCc2sc3ncnc(O[C@H]4CC[C@H](N5CCOCC5)CC4)c3c21,"enzyme activity, inhibitor",10 µM,,inhibition,-2%
CC(C)=CC1OC(C)(C)C2C=C3C(=O)C(Cl)=CC(O)C3C3C(O)C4OC4C(=O)C132 (stereo not shown),"cell-free assay, competition with immobilised ligand",10 µM,,remaining binding,100%
Cc1cccc(O[C@H]2CCC[C@@H](C(C)CNCc3ccncc3)C2)c1 (relative stereo),"enzyme activity, inhibitor",10 µM,,inhibition,-7%
C=CC(=O)Nc1cccc(-c2cnc3[nH]cc(C(=O)NC(C)(C)C)c3n2)c1,"enzyme activity, inhibitor",0.1 µM,,inhibition,15%
CNS(=O)(=O)Nc1nccc(Cc2c(C)c3ccc(Oc4ncccc4F)cc3oc2=O)c1F,"binding, competition with immobilised ligand",10 µM,,remaining binding,100%
Cc1cnc2nc1Nc1cccc(c1)COC/C=C/COCc1cc(ccc1OCCN1CCOCC1)N2,"binding, competition with immobilised ligand",0.1 µM,,remaining binding,100%
